{"data": "Assay results from different studies", "note": "Every numbered part comes from another study and shows a few of its results, in no order."}
{"data": "Sample 1", "target": "Sal-like protein 4, full length isoform A (SALL4, Homo sapiens, UniProt Q9UJQ4, residues 1-1053)", "technique": "universal PBM", "form": "double-stranded DNA, one strand shown", "matrix": "in vitro", "tested at": "600 nM", "setting": "8-mer, flanks averaged, mean of replicates", "reading": "higher = stronger binding", "UniProt Q9UJQ4, sequence (whole entry, looked up)": "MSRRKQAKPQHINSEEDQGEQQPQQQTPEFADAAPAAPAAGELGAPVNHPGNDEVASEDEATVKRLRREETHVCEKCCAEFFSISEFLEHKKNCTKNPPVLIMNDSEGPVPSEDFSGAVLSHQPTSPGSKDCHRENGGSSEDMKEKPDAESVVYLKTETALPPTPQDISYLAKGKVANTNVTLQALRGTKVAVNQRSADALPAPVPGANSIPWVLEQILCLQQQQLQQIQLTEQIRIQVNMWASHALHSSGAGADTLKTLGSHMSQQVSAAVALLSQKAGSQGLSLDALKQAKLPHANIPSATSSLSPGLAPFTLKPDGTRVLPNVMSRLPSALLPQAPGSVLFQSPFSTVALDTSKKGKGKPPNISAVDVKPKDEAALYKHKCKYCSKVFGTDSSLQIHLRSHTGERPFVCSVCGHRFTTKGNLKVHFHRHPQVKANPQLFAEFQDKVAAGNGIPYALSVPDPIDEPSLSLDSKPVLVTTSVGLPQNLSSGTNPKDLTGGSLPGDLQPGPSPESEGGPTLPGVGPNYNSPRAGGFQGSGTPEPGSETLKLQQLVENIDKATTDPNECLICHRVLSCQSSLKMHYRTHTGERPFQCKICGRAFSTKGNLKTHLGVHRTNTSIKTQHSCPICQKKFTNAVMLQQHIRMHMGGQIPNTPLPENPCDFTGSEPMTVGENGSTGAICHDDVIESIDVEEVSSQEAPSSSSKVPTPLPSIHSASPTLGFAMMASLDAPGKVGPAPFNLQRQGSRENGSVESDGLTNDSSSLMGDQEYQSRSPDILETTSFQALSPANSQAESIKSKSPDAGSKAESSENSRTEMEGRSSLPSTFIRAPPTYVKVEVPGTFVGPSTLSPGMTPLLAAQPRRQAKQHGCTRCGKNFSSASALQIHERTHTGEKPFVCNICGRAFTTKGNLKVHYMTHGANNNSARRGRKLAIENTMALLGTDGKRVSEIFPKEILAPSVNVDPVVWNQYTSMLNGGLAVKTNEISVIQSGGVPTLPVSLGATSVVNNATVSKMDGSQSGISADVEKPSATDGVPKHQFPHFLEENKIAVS"}
{"Sequence": "AAAAACTG", "E-score": 0.136}
{"Sequence": "GAAACCGC", "E-score": -0.129}
{"Sequence": "CATCCAGA", "E-score": -0.0813}
{"Sequence": "AAACAGTA", "E-score": 0.283}
{"Sequence": "GATCGGGC", "E-score": -0.334}
{"Sequence": "AGCCTGGA", "E-score": -0.265}
{"Sequence": "GGTGGCGA", "E-score": -0.174}
{"Sequence": "TCTGATAA", "E-score": 0.167}
{"Sequence": "GAACTAAC", "E-score": -0.104}
{"Sequence": "AACGCGTT", "E-score": -0.0481}
{"Sequence": "GGTTTAAA", "E-score": 0.192}
{"Sequence": "CAGCTCCA", "E-score": -0.243}
{"Sequence": "CCCCGTGC", "E-score": -0.34}
{"Sequence": "CGCCACTC", "E-score": -0.0936}
{"Sequence": "CGGGCTGA", "E-score": -0.338}
{"Sequence": "CATTACAG", "E-score": 0.166}
{"Sequence": "CGTTCGCA", "E-score": 0.00975}
{"Sequence": "CTGGGAAG", "E-score": -0.176}
{"Sequence": "CTTTGCAA", "E-score": 0.109}
{"Sequence": "ACCCTCAG", "E-score": -0.0659}
{"Sequence": "GGCATTCA", "E-score": -0.046}
{"Sequence": "CCGCGTTA", "E-score": -0.169}
{"Sequence": "CTTTGACC", "E-score": 0.072}
{"data": "Sample 2", "target": "Interferon regulatory factor 3, full length, phosphomimetic (IRF3, Homo sapiens, UniProt Q14653, residues 1-427, S386D/S396D/S398D/S402D/T404D/S405D)", "technique": "protein-binding microarray", "form": "double-stranded DNA, one strand shown", "matrix": "in vitro", "tested at": "2540 nM top", "setting": "60-bp whole probe", "with": "salmon DNA 0.4 mg/ml", "reference": "random background probes", "reading": "higher = stronger binding", "all sequences stand within": "GCCTAGCAC … GTCTTGATTCGCTTGACGCTGCTG", "UniProt Q14653, sequence (whole entry, unmodified, looked up)": "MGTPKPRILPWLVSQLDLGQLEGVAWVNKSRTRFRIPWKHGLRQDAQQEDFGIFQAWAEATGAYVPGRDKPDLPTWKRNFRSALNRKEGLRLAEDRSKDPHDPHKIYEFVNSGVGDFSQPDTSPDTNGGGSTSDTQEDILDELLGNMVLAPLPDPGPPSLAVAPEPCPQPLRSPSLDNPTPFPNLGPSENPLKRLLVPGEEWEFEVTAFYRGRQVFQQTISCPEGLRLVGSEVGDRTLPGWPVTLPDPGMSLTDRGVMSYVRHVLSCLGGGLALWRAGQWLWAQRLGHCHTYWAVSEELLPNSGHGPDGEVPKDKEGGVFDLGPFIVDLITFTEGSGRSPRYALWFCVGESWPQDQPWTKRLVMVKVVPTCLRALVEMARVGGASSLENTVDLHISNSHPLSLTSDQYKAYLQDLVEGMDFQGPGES"}
{"Sequence": "CACGGTCTCCTACTGCTGACGTGCTAG", "fitted relative affinity [z-score]": 0.918}
{"Sequence": "TTAGGTCTGGGTTTCGGTTAGTGCTAG", "fitted relative affinity [z-score]": 2.63}
{"Sequence": "TCACATCTCTCTTAAATACTGTGCTAG", "fitted relative affinity [z-score]": 1.16}
{"Sequence": "TTAGGTTACGGTATCGGTTAGTGCTAG", "fitted relative affinity [z-score]": 2.77}
{"Sequence": "TTAGGTATCGGGTATCGGATAGTGCTA", "fitted relative affinity [z-score]": 1.9}
{"Sequence": "AACTTTTTTTTTTCCCTGAAGTGCTAG", "fitted relative affinity [z-score]": 1.57}
{"Sequence": "TTAGGTTTCGGTATCGGCTAGTGCTAG", "fitted relative affinity [z-score]": 8.25}
{"Sequence": "TCATTTTCCTATGTCATACTGTGCTAG", "fitted relative affinity [z-score]": 3.9}
{"Sequence": "TTAGGTATCGACTATCTGTTAGTGCTA", "fitted relative affinity [z-score]": 0.283}
{"Sequence": "GGCGATATCGGGACTGGAGACGTGCTA", "fitted relative affinity [z-score]": -0.0737}
{"Sequence": "TTAGGACTCGACACTGGGTTAGTGCTA", "fitted relative affinity [z-score]": -0.656}
{"Sequence": "TCTTCCTTTACTTTCTTTTTGTGCTAG", "fitted relative affinity [z-score]": 3.02}
{"Sequence": "TCAAATATCTTTGTTGAACTGTGCTAG", "fitted relative affinity [z-score]": 0.0884}
{"Sequence": "TTAGAACTGAGTATCTATTAGTGCTAG", "fitted relative affinity [z-score]": -0.228}
{"Sequence": "TCAAGACTCTCTTGTCTGACTGTGCTA", "fitted relative affinity [z-score]": -0.802}
{"Sequence": "AACGGACTGCTTCTCCTGACGTGCTAG", "fitted relative affinity [z-score]": -0.183}
{"Sequence": "GACGGACTGGTCACTGGGGACGTGCTA", "fitted relative affinity [z-score]": -0.653}
{"Sequence": "TTAGGACTGTGGTATCGGTTAGTGCTA", "fitted relative affinity [z-score]": 0.623}
{"Sequence": "CACGGACTGGGTCTCGGGACGTGCTAG", "fitted relative affinity [z-score]": -0.668}
{"Sequence": "TTAGGTTTCCATCTCCTTTAGTGCTAG", "fitted relative affinity [z-score]": 8.9}
{"Sequence": "GTAGATATCAGTTTCGATTAGTGCTAG", "fitted relative affinity [z-score]": 4.66}
{"Sequence": "GTAGGTTTCCTTTCCCTTTAGTGCTAG", "fitted relative affinity [z-score]": 10.8}
{"Sequence": "TAGAGTAGCTTTCTGAGGGCGTGCTAG", "fitted relative affinity [z-score]": -0.396}
{"Sequence": "TTAGGCCTCGGTTTCGGTTAGTGCTAG", "fitted relative affinity [z-score]": 3.69}
{"Sequence": "GACGGTTTCAGGTTTCGGGACGTGCTA", "fitted relative affinity [z-score]": 4.6}
{"data": "Sample 3", "target": "RING finger protein unkempt homolog, zinc fingers 1-6, GST-SBP tag (UNK, Homo sapiens, UniProt Q9C0B0, residues 30-357)", "technique": "RNA Bind-n-Seq", "form": "RNA", "matrix": "in vitro", "tested at": "not given", "setting": "RNA with constant flanks, ends assumed", "reference": "input RNA pool", "reading": "higher = stronger binding", "UniProt Q9C0B0, sequence (30-357, looked up)": "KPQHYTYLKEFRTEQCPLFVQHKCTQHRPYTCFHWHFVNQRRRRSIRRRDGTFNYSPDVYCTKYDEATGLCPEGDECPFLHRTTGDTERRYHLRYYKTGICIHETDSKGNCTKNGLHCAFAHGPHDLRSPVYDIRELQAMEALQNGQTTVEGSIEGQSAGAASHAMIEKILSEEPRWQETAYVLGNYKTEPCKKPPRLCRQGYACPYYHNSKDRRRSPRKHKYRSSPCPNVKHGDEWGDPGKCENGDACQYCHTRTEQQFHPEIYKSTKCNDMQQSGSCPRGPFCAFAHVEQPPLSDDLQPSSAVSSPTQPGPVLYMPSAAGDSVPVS"}
{"Sequence": "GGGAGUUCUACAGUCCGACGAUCAUGGAACAGAAACAUAGAGAGGAACUGGAGCAAUUGAAGCUGACUACUAAGGAGAAUAAGACCGAUUCUGUUGCUGUUAACAUUUCAAACUUGGUGCUUGAGAAUCAGCCACCUCGGAUACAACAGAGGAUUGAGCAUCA", "bound/input enrichment [ratio]": 0.261}
{"Sequence": "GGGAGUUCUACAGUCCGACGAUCAUAGAUGCCCUCGCUUCCUCCCUGUUUCCCGAUUCCUUCUGCCCCCACCCCCAGAUCUCCCCGCCGGUCACCCAGACCCGUCUGCACCCCACUUGCGAAUCUGCAGCCACAAAUCCUCUGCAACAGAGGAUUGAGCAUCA", "bound/input enrichment [ratio]": 0.321}
{"Sequence": "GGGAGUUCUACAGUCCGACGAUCAAGAUAACUUCAAGGCAGGAAAAAAGGGUAUUUAAUGCUCUGUCAAGCACAUCAGCAAUCACCGAUUACCUUACAGACCAUUAUGGCAUUUGACUAGACUUCCCAAAUAAUUUUAAUAUACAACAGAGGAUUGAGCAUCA", "bound/input enrichment [ratio]": 0.57}
{"Sequence": "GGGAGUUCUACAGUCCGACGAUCUGCUAACACUAGACAAAAAUCAACUGUAUUUGUAAAAAUUUACCUCAAACCAUUUAAUUUUACCGUGUGAUUAAUCCCAGGGCAUUUGGUAUGAACCAAAGUGCAUUCCUUUUAUAUGUGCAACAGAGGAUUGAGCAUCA", "bound/input enrichment [ratio]": 1.29}
{"Sequence": "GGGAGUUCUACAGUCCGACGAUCACAGAUGGGAAACACGGACUUAAGUGUAUGUUUCAUAUACUGACAGUGGGACAUGGUUCUACCGAUCAAUUAUAAUAAUAAAUAUUUUAAUUUAUCAUAAUUUAUAAAAGCUUUGUUGUUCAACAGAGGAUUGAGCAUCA", "bound/input enrichment [ratio]": 3.26}
{"Sequence": "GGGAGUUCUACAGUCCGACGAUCGAAUGGAAGAAUAUGGGUUAAGGCAAAAACCAUCCAGCAGACUUUAAUUUUGGCAAACAUUUCCGAAGCUUGUGAACACAUGACGUCAGAUCAAAGAAAACAGAUCUUCUCCAGAUUGGCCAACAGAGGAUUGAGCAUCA", "bound/input enrichment [ratio]": 0.252}
{"Sequence": "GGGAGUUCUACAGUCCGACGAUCAGCAAGAAGAAUAACAUAUUCGCCCAGUUCCGGAAGAAUGACCGAGACAGACAGAAGCUGACCGAGACAGUGGUGAGACAGCUCAGAGGCUUGGUGACUGGUAUGUCCCAGCACACGUAGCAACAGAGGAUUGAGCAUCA", "bound/input enrichment [ratio]": 0.168}
{"Sequence": "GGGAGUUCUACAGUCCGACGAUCGCUUCCAAGAAGGUUUUGGAUACUAGAAGUAUUAAUCUAUGGCUUUUCUCCCAGUAAAACCACCGGCCUGAAGUUCACAUUGGGUCUUUAAAUCUUUUAGAUAUAUACUGGUCAUUUCAGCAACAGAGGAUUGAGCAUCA", "bound/input enrichment [ratio]": 1.12}
{"Sequence": "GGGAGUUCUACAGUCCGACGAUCUGAAGUGGUUUUUGUGGGUGUGAAACAAAUGGUGAGAAUUUGAAUUGGUCCCUCCUAUUACCGUAUUGAAAUUAAGUCUACUUAAUUUAUCAAGUCAUGUUCAUGCCCUGAUUUUAUAUACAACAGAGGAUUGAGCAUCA", "bound/input enrichment [ratio]": 0.453}
{"Sequence": "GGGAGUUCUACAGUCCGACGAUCAUAUCUUAUUGCCAUAAACUCCAUGUGGUCCACAGAGACUUGAAACCAGAGAAUGCCGUCUUUUUUGAAAAACAAGGUCUUGUGAAGUUGACAGACUUUGGCUUCAGCAACAAAUUUCAGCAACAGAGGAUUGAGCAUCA", "bound/input enrichment [ratio]": 0.101}
{"Sequence": "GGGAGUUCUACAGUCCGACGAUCGACACAAAAAACAAGGAUGGCGUGCUGGUGGAUGAAUUUGGACUGCCGCAGAUUCCCGCUUCGCCGACUUACAACAUUCCAGCACGUGAUGUGAAACAACAAGAGAAGUAUUCUGGGACUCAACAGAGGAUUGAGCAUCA", "bound/input enrichment [ratio]": 0.133}
{"data": "Sample 4", "target": "Fragile X messenger ribonucleoprotein 1, C-terminal low-complexity region (Fmr1, Mus musculus, UniProt P35922)", "technique": "RNA Bind-n-Seq", "form": "RNA", "matrix": "in vitro", "tested at": "200 nM", "setting": "whole 134-nt RNA, ends assumed", "with": "150 mM KCl", "reference": "input library", "reading": "higher = stronger binding"}
{"Sequence": "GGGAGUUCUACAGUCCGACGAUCUCCUGUGCUACACAUCGUAUGUACCGAAUCGGGCCCCCCGGGGCCCCCCGGCCCCCCGGGAAAGUAUUAUGUUACGCCGUUCGGAUCUGCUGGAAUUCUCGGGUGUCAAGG", "log2 enrichment": -0.69}
{"Sequence": "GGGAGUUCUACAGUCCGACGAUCCCUCAAGUCCUGUGCUACACAUCGUAUGUACCGAAUCGGCGGGCGGGGCGGGGAAAGUAUUAUGUUACGCCGUUCGGAUCUGCACUUCCAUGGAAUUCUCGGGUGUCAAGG", "log2 enrichment": 0.461}
{"Sequence": "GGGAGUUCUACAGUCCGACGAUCUCUAUCCUGUCCCUCCACCCCACCCUCCACCUCAAUCCCCUCCCAUCUUCCCCAGACCUACCUCACCUACUAGGACCUGAGGCAGCUCCUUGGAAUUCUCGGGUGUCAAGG", "log2 enrichment": 0.338}
{"Sequence": "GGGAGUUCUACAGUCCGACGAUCCUCAAGUCCUGUGCUACACAUCGUAUGUACCGAAUCGGGCCGGCCGGCCGGGGAAAGUAUUAUGUUACGCCGUUCGGAUCUGCACUUCCAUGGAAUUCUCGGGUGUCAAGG", "log2 enrichment": 0.0121}
{"Sequence": "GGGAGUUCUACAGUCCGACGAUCUUGGACUAUGGAUCAGGUACUGUGCUCAGCAUCAGAAAAUGGGAUGACAAUGAACAGAGUAACAGGACUAUAUUUCUGAAAAAGGAUGAAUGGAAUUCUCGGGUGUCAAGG", "log2 enrichment": -0.399}
{"Sequence": "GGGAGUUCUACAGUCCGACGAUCUCAAGUCCUGUGCUACACAUCGUAUGUACCGAAUCGGGGCCCGGGCCCGGCCCGGAAAGUAUUAUGUUACGCCGUUCGGAUCUGCACUUCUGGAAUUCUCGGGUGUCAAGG", "log2 enrichment": -0.73}
{"Sequence": "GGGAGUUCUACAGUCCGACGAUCUGGGAGGUGGAUUUUGUUUAUUUUCUUAGCUCAUUUCCAGGGGUGGGAAUUUUUUUUUAAUAUGUGUCAUGAAUAAAGUUGUUUUUGAAAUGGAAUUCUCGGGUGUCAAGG", "log2 enrichment": 0.21}
{"Sequence": "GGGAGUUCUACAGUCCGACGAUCUCCUGUGCUACACAUCGUAUGUACCGAAUCAAACCCCCCCAAACCCCCAAAUUUUUAAAAAAGUAUUAUGUUACGCCGUUCGGAUCUGCAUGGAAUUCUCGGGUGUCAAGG", "log2 enrichment": 0.0547}
{"Sequence": "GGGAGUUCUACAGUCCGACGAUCCAAGUCCUGUGCUACACAUCGUAUGUACCGAAUCGGAAAGGUUUUUUUGGAAAGGAAAGUAUUAUGUUACGCCGUUCGGAUCUGCACUUCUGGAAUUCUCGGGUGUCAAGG", "log2 enrichment": -1.1}
{"Sequence": "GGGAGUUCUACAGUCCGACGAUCAAGUCCUGUGCUACACAUCGUAUGUACCGAAUCGGGAAAAAGGGAGGGUUUUUGGGAAAGUAUUAUGUUACGCCGUUCGGAUCUGCACUUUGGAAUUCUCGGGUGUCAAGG", "log2 enrichment": 0.692}
{"note": "For quick reference, copied from above (sample 1):"}
{"Sequence": "GGTTTAAA", "E-score": 0.192}
{"Sequence": "GATCGGGC", "E-score": -0.334}
{"Sequence": "CCGCGTTA", "E-score": -0.169}
{"Sequence": "CGGGCTGA", "E-score": -0.338}
{"Sequence": "CTTTGACC", "E-score": 0.072}
{"Sequence": "CGTTCGCA", "E-score": 0.00975}
